Experimental data from different studies.
Every numbered part comes from another study and shows a few of its results, in no order.
Sequence of UniProt Q56UN5 (whole entry, looked up): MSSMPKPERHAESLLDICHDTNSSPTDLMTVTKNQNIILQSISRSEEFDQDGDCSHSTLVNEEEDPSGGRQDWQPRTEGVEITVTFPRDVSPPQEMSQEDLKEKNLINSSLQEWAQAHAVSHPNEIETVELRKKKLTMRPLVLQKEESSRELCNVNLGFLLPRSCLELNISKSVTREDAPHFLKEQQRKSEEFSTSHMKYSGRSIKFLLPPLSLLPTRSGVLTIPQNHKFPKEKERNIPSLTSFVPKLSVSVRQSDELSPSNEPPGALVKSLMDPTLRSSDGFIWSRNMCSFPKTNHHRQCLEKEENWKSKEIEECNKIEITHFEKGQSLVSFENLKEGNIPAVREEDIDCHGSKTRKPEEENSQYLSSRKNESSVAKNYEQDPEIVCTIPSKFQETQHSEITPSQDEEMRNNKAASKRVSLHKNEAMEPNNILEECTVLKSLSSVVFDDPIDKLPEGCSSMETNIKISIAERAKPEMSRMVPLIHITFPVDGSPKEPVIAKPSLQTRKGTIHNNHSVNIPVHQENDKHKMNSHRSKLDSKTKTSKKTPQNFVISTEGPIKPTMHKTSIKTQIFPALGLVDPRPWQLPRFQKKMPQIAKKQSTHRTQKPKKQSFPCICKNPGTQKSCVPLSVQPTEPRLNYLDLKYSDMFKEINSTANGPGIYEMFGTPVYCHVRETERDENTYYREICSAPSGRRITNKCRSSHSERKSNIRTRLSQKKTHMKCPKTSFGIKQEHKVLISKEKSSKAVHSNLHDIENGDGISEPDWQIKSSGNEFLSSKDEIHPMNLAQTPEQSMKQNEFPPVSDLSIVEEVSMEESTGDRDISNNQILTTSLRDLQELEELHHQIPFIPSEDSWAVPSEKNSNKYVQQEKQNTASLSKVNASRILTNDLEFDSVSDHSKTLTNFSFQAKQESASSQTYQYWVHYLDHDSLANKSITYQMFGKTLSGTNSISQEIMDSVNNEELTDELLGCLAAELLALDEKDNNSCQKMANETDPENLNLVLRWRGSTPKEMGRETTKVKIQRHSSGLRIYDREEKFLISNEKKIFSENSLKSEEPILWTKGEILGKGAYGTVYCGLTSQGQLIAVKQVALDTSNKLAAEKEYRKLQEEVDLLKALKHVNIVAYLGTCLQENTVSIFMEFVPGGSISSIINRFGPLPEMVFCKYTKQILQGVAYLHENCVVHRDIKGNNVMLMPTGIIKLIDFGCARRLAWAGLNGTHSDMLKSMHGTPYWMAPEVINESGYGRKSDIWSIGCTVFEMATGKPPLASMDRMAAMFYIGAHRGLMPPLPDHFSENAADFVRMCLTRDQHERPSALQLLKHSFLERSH
Sequence of UniProt P10398 (whole entry, looked up): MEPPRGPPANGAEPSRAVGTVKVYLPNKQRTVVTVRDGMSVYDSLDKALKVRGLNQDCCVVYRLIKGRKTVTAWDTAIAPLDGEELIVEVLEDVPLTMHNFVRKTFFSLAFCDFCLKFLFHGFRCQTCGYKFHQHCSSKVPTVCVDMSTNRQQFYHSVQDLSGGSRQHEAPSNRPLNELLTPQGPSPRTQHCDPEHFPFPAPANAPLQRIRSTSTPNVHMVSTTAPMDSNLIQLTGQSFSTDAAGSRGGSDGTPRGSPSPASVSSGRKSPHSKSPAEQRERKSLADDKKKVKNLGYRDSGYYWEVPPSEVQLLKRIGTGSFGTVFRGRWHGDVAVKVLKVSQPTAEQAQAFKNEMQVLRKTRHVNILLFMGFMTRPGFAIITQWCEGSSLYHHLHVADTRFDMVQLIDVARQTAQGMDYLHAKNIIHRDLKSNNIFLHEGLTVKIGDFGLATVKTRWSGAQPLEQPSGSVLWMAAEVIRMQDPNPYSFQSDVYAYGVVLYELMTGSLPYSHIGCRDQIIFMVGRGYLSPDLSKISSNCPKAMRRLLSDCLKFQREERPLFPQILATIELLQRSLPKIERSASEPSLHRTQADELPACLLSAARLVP
Sequence of UniProt Q96PY6 (whole entry, looked up): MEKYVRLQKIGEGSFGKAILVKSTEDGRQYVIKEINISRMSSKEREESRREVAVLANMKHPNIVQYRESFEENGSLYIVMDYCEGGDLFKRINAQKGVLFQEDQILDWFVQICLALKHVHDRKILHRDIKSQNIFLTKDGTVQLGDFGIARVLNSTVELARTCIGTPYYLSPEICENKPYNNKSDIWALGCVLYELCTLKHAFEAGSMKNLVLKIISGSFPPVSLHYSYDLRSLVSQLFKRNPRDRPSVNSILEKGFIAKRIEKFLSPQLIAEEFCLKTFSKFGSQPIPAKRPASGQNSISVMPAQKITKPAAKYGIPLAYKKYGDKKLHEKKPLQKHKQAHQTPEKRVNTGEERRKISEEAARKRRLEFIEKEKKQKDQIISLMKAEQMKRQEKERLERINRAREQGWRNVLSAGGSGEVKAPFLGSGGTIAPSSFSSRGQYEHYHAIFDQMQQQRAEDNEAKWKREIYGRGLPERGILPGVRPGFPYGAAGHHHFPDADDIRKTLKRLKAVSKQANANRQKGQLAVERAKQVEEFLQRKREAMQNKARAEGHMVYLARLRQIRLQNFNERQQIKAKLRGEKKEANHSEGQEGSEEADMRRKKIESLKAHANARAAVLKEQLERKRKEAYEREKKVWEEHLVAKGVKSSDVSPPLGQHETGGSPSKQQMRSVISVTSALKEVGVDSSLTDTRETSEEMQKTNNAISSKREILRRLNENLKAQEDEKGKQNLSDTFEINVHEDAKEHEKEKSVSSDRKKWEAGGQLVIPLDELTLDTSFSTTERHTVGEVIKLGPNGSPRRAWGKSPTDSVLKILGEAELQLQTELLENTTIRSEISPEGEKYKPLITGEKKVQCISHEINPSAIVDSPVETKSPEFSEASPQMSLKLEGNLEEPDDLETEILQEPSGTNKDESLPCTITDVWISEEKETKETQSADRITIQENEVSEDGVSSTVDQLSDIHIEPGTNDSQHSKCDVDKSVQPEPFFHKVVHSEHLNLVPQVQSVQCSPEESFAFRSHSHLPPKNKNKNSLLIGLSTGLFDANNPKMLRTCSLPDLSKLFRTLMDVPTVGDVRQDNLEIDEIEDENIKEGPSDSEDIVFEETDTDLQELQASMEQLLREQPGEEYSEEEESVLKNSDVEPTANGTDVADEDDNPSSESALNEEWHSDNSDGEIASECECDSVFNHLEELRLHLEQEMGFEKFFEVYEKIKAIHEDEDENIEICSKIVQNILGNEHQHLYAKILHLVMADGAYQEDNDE
Sequence of UniProt Q15349 (whole entry, looked up): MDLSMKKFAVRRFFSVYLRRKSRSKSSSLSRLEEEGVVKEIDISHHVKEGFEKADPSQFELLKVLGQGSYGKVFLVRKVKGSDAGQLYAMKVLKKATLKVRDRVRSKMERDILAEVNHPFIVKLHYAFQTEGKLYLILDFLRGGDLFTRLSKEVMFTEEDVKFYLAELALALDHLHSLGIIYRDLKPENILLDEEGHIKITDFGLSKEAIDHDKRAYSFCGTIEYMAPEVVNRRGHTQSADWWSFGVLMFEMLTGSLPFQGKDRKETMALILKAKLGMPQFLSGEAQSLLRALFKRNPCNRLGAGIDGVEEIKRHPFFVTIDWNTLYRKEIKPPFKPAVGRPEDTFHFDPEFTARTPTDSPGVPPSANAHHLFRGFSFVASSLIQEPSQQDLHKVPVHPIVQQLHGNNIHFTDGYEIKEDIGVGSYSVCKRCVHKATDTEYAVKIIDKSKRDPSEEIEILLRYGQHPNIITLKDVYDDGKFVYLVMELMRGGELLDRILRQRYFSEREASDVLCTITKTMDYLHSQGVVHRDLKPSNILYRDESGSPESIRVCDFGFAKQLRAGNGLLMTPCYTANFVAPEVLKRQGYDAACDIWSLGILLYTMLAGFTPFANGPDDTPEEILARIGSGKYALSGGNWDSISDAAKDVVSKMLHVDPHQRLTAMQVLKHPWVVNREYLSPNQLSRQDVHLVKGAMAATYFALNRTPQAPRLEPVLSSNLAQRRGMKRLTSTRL
Sequence of UniProt P49841 (whole entry, looked up): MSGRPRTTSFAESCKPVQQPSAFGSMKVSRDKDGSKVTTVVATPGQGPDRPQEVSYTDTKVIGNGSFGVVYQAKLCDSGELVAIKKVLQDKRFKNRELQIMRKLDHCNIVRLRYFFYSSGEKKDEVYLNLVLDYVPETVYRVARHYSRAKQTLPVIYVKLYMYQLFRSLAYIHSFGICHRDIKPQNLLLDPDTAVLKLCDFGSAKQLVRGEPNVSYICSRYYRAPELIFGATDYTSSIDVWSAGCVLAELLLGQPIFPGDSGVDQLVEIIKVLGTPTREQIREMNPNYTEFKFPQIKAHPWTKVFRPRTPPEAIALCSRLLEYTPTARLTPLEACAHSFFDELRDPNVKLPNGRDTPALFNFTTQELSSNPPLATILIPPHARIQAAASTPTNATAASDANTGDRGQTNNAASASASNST
Sequence of UniProt Q9HC98 (whole entry, looked up): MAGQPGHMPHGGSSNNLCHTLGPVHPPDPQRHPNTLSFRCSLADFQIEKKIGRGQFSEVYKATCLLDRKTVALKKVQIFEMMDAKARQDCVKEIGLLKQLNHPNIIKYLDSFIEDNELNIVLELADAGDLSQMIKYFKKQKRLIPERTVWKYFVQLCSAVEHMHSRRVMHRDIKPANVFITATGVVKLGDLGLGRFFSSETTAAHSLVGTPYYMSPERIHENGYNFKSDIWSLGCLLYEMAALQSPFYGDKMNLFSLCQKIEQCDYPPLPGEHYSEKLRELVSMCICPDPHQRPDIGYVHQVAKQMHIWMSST

Block 1 — effect on: enzyme activity; action: inhibitor; concentration: 0.5 µM; reference: control
Compound: NC(=O)c1ccc(-c2nc(-c3ccc4c(c3)OCCO4)c(-c3ccccn3)[nH]2)cc1
| target | remaining activity [%] |
| --- | --- |
| TAOK2 (Homo sapiens, UniProt Q9UL54) | 101 |
| NEK1 (Homo sapiens, UniProt Q96PY6) | 98.5 |
| MERTK (Homo sapiens, UniProt Q12866) | 92.7 |
| MAP3K5 (Homo sapiens, UniProt Q99683) | 104 |
| ARAF (Homo sapiens, UniProt P10398) | 105 |
| TBK1 (Homo sapiens, UniProt Q9UHD2) | 90.4 |
| RPS6KA2 (Homo sapiens, UniProt Q15349) | 88.5 |
| GSK3B (Homo sapiens, UniProt P49841) | 98.9 |
| NEK6 (Homo sapiens, UniProt Q9HC98) | 102 |
| GRK7 (Homo sapiens, UniProt Q8WTQ7) | 105 |
| WEE1 (Homo sapiens, UniProt P30291) | 105 |
| MAPK3 (Homo sapiens, UniProt P27361) | 107 |
| ACVR1B (Homo sapiens, UniProt P36896) | 158 |

Block 2 — cell line: A-375; concentration: 100 µM; time: 18 h
| Structure (SMILES) | viability [%] |
| --- | --- |
| COc1cc(C)c(/C=C/C(C)=C/C=C/C(C)=C/C(=O)O)c(C)c1C | 79.2 |
| CC1CCc2cc(F)cc3c(=O)c(C(=O)O)cn1c23 (centres unmarked) | 106 |
| COC(=O)Nc1nc2cc(C(=O)c3ccc(F)cc3)ccc2[nH]1 | 38.2 |

Block 3 — method: RNA Bind-n-Seq; molecule type: RNA; matrix: in vitro; concentration: 90 pmol; notes: 4-mer, random 30-nt RNA, single round; reference: input library; reading: higher = stronger binding
Target: Eukaryotic initiation factor 4A-I (EIF4A1, Homo sapiens, UniProt P60842, residues 1-406, full length assumed)
Sequence of UniProt P60842 (whole entry, looked up): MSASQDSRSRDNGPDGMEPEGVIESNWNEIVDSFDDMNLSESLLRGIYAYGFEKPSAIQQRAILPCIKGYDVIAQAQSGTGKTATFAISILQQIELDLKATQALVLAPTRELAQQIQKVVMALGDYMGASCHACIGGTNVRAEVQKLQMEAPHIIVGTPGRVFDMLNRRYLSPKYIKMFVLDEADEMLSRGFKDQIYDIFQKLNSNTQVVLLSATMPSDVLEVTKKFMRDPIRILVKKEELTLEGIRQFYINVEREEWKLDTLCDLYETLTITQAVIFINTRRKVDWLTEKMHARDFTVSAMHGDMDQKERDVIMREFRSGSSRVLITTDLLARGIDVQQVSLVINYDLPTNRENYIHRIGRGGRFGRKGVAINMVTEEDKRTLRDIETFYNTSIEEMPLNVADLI
With: 3 µM iPr-DMDA-PatA, 2 mM ADP, 2 mM phosphate
| Oligonucleotide | 4-mer enrichment [fold] |
| --- | --- |
| CGAA | 1.29 |
| UAUG | 1.04 |
| GCAA | 1.05 |
| GCCG | 0.686 |
| GACG | 0.979 |
| ACUG | 0.986 |
| CCUU | 0.895 |
| UAAA | 1.52 |

Block 4 — effect on: cell-free assay; method: competition with immobilised ligand; concentration: 1 µM
Compound: CS(=O)(=O)NCC[C@H](NC(=O)c1cncc2c1cnn2-c1ccc(F)cc1)c1ccnc(S(C)(=O)=O)c1
| target | remaining binding |
| --- | --- |
| NEK3 (Homo sapiens, UniProt P51956) | 86% |
| MAP3K19 (Homo sapiens, UniProt Q56UN5) | 98% |
| TTK (Homo sapiens, UniProt P33981) | 91% |

Mixed results — host: human; matrix: microsomes or S9; concentration: 2 µM; time: 0.5 h
| SMILES | remaining compound [%] |
| --- | --- |
| CCN(CC)S(=O)(=O)c1ccc(OC)c(NC(=O)CCCOc2ccc(Cl)c(C)c2)c1 | 18.9 |
| Cn1ccc(-c2ccc(-c3cc(Br)cnc3N)nc2)n1 | 27.8 |

Repeated from above (block 1):
| target | remaining activity [%] |
| --- | --- |
| ARAF (Homo sapiens, UniProt P10398) | 105 |
| TBK1 (Homo sapiens, UniProt Q9UHD2) | 90.4 |
